Published values of several laboratories.
Compare with care: the assays were run in different laboratories.
Organism: Pseudomonas aeruginosa

SMILES	test	test system	conditions	scale	MIC
CC(=NNC(=N)N)c1nnn(-c2ccc(C#CC3(O)CCCCC3)cc2)c1C	microbial growth	ATCC10145			31.2 µg/mL
C[C@H]1COc2c(N3CCN(C)CC3)c(F)cc3c(=O)c(C(=O)N[C@@H](CCCNC(=N)N)C(=O)N[C@@H](Cc4ccc(-c5ccccc5)cc4)C(=O)N[C@@H](CCCNC(=N)N)C(=O)N[C@@H](Cc4ccc(-c5ccccc5)cc4)C(=O)N[C@@H](CCCNC(=N)N)C(N)=O)cn1c23	broth microdilution	ATCC 3197			20 µM
COc1ccc2ccc3c(c2c1)C=[N+]1C2CCCCC2[N+]2=Cc4ccc(C)cc4[O][Au-]21[O]3.F[P-](F)(F)(F)(F)F (stereo not drawn)	bacterial growth, broth microdilution	carbapenem-resistant	24 h		10 µM
COc1c(CC=C(C)C)c(O)cc2c1[C@@H]1Oc3c(ccc(O)c3CC=C(C)C)[C@@H]1CO2		ATCC 10145			128 µg/mL
NCC1OC(OC2C(N)CC(N)C(OC3OC(CO)C(O)C(N)C3O)C2OCCCCCCCCCCCCn2cc(CNc3nc(NCc4cn(CCCCCCCCCCCCOC5C(OC6OC(CN)C(O)CC6N)C(N)CC(N)C5OC5OC(CO)C(O)C(N)C5O)nn4)nc(NCc4cn(CCCCCCCCCCCCOC5C(OC6OC(CN)C(O)CC6N)C(N)CC(N)C5OC5OC(CO)C(O)C(N)C5O)nn4)n3)nn2)C(N)CC1O (stereo not drawn)	microbial growth, broth dilution	PAO1			32 µg/mL
CC(C)C1=CC2=CCC3C(C)(C(=O)OCCC[N+](C)(C)C)CCCC3(C)C2CC1 (stereo not drawn)	microbial growth, broth dilution	ATCC27853	16 h		62.5 µg/mL
COc1ccc2ccc3c(c2c1)C=[N+]1C2CCCCC2[N+]2=Cc4cccc(F)c4[O][Au-]21[O]3.F[P-](F)(F)(F)(F)F (stereo not drawn)	bacterial growth, broth microdilution	carbapenem-resistant	24 h		> 20 µM
c1ccc(CN2CCOCCOCCN(CCCCCCCCCCN3CCOCCOCCN(CCCCCCCCCCN4CCOCCOCCN(Cc5ccccc5)CCOCCOCC4)CCOCCOCC3)CCOCCOCC2)cc1		meropenem-resistant			100 µM
CC[C@@H](C)[C@@H](NC(=O)[C@@H](C)NC(=O)[C@@H](CCCCN)NC(=O)[C@@H](CC(C)C)NC(=O)[C@@H](CC(C)C)NC(=O)[C@H](NC(=O)[C@@H](CCCCN)NC(=O)[C@@H](CC(C)C)NC(=O)[C@@H](C)NC(=O)[C@@H](CCCCN)NC(=O)[C@@H](CCCCN)NC(=O)[C@@H](CCCCN)NC(=O)[C@@H](C)NC(=O)[C@@H](CCCCN)NC(=O)[C@@H](CO)NC(=O)[C@@H](Cc1ccccc1)NC(=O)[C@H](NC(=O)[C@@H](CCCCN)NC(=O)[C@@H](CC(C)C)NC(=O)[C@@H](Cc1ccccc1)NC(=O)[C@@H](CO)NC(=O)[C@@H](CCCCN)NC(=O)[C@@H](Cc1c[nH]c2ccccc12)NC(=O)[C@@H](CCCCN)NC(C)=O)[C@H](C)O)[C@H](C)O)C(=O)N[C@H](CO)C(=O)N[C@H](CCCCN)C(N)=O	broth microdilution	PAO1	24 h, 37 °C		1.3 µM
CC[P+](CC)(CC)[Au-][S+](C[C@H]1O[C@H](O[C@H]2O[C@H](COC(C)=O)[C@@H](OC(C)=O)[C@H](OC(C)=O)[C@H]2OC(C)=O)[C@H](OC(C)=O)[C@@H](OC(C)=O)[C@@H]1OC(C)=O)[Au-][P+](CC)(CC)CC.[Cl-]		NCTC 13437			> 194 µM
CC[C@@H](C)[C@@H](NC(=O)[C@@H](C)NC(=O)[C@@H](CCCCN)NC(=O)[C@@H](CC(C)C)NC(=O)[C@@H](CC(C)C)NC(=O)[C@H](NC(=O)[C@@H](CCCCN)NC(=O)[C@@H](CC(C)C)NC(=O)[C@@H](CCCCN)NC(=O)[C@@H](CCCCN)NC(=O)[C@@H](CCCCN)NC(=O)[C@@H](CCCCN)NC(=O)[C@@H](C)NC(=O)[C@@H](CCCCN)NC(=O)[C@@H](CO)NC(=O)[C@@H](Cc1ccccc1)NC(=O)[C@H](NC(=O)[C@@H](CCCCN)NC(=O)[C@@H](CC(C)C)NC(=O)[C@@H](Cc1ccccc1)NC(=O)[C@@H](CO)NC(=O)[C@@H](CCCCN)NC(=O)[C@@H](Cc1c[nH]c2ccccc12)NC(=O)[C@@H](CCCCN)NC(C)=O)[C@H](C)O)[C@H](C)O)C(=O)N[C@H](CO)C(=O)N[C@H](CCCCN)C(N)=O	broth microdilution	PAK	24 h, 37 °C		2.5 µM
CO[C@@H](C(N)=O)[C@H](NC(=O)c1ccc(NC(=O)c2ccc([N+](=O)[O-])cc2)cc1)C(=O)Nc1ccc(C(=O)Nc2ccc(C(=O)Nc3ccc(C(=O)O)cc3)c(O)c2OC(C)C)cc1	microbial growth	PA14			2 µg/mL
CC(C)C[C@H](NC(=O)[C@H](CC(N)=O)NC(=O)[C@H](CCCNC(=N)N)NC(=O)[C@@H](CC(C)C)NC(=O)[C@H](Cc1ccc(-c2ccccc2)cc1)NC(=O)[C@H](CC(=O)O)NC(=O)[C@H](CCCCN)NC(=O)[C@@H](CC(C)C)NC(=O)[C@H](CCCNC(=N)N)NC(=O)[C@H](CCC(N)=O)NC(=O)[C@@H](NC(=O)[C@@H](CC(C)C)NC(=O)[C@H](CCCNC(=N)N)NC(=O)[C@H](CCCCN)NC(=O)[C@H](Cc1ccc(-c2ccccc2)cc1)NC(=O)CN)C(C)C)C(=O)N[C@H](C(N)=O)C(C)C	broth microdilution	PAO1			6.2 µM
O=C(NCCNCCO)c1cn(Cc2cccc(Br)c2)c2cc(Cl)c(OCc3ccc(C(F)(F)F)cc3)cc2c1=O		ATCC 27853		≥80% growth inhibition	< 0.25 µg/mL
CC[C@@H](C)[C@@H](NC(=O)[C@@H](C)NC(=O)[C@@H](CCCCN)NC(=O)[C@@H](CC(C)C)NC(=O)[C@@H](C)NC(=O)[C@H](NC(=O)[C@@H](CCCCN)NC(=O)[C@@H](CC(C)C)NC(=O)[C@H](NC(=O)[C@@H](CCCCN)NC(=O)[C@@H](CCCCN)NC(=O)[C@@H](CCCCN)NC(=O)[C@@H](C)NC(=O)[C@@H](CCCCN)NC(=O)[C@@H](CO)NC(=O)[C@@H](Cc1ccccc1)NC(=O)[C@H](NC(=O)[C@@H](CCCCN)NC(=O)[C@@H](CC(C)C)NC(=O)[C@@H](Cc1ccccc1)NC(=O)[C@@H](CO)NC(=O)[C@@H](CCCCN)NC(=O)[C@@H](Cc1c[nH]c2ccccc12)NC(=O)[C@@H](CCCCN)NC(C)=O)[C@H](C)O)C(C)C)[C@H](C)O)C(=O)N[C@H](CO)C(=O)N[C@H](CCCCN)C(N)=O	broth microdilution	PAK	24 h, 37 °C		2.6 µM
COc1ccc2ccc3c(c2c1)C=[N+]1C2CCCCC2[N+]2=Cc4ccc(F)cc4[O][Au-]21[O]3.F[P-](F)(F)(F)(F)F (stereo not drawn)	bacterial growth, broth microdilution	carbapenem-resistant clinical isolate	24 h		10 µM
CNC(C)C1CCC(N)C(OC2C(N)CC(N)C(OC3OCC(C)(O)C(NC)C3O)C2O)O1 (stereo not drawn)	broth microdilution	SP1 clinical isolate	18 h, 37 °C		2 µM
CC(C)C(O)C(NC(=O)[C@H](Cc1ccc(O)cc1)NC(=O)C(Cc1ccc(O)c(Cl)c1)[N+](C)(C)C)C(=O)N[C@@H](C)C(=O)O (stereo partly drawn)	CLSI broth microdilution	PAO1			> 100 µM

For quick reference, copied from above:
SMILES	test	test system	conditions	scale	MIC
CC[C@@H](C)[C@@H](NC(=O)[C@@H](C)NC(=O)[C@@H](CCCCN)NC(=O)[C@@H](CC(C)C)NC(=O)[C@@H](CC(C)C)NC(=O)[C@H](NC(=O)[C@@H](CCCCN)NC(=O)[C@@H](CC(C)C)NC(=O)[C@@H](CCCCN)NC(=O)[C@@H](CCCCN)NC(=O)[C@@H](CCCCN)NC(=O)[C@@H](CCCCN)NC(=O)[C@@H](C)NC(=O)[C@@H](CCCCN)NC(=O)[C@@H](CO)NC(=O)[C@@H](Cc1ccccc1)NC(=O)[C@H](NC(=O)[C@@H](CCCCN)NC(=O)[C@@H](CC(C)C)NC(=O)[C@@H](Cc1ccccc1)NC(=O)[C@@H](CO)NC(=O)[C@@H](CCCCN)NC(=O)[C@@H](Cc1c[nH]c2ccccc12)NC(=O)[C@@H](CCCCN)NC(C)=O)[C@H](C)O)[C@H](C)O)C(=O)N[C@H](CO)C(=O)N[C@H](CCCCN)C(N)=O	broth microdilution	PAK	24 h, 37 °C		2.5 µM
CO[C@@H](C(N)=O)[C@H](NC(=O)c1ccc(NC(=O)c2ccc([N+](=O)[O-])cc2)cc1)C(=O)Nc1ccc(C(=O)Nc2ccc(C(=O)Nc3ccc(C(=O)O)cc3)c(O)c2OC(C)C)cc1	microbial growth	PA14			2 µg/mL
